# Measurements pooled from the literature.
Structure (SMILES),system,setting,fluorescence lifetime [ns]
CCCCN1C(=O)c2cccc3c(NCCCN4CCOCC4)ccc(c23)C1=O,ethylene glycol,,6.4
CCN(CC)c1ccc(-c2oc3cc4ccccc4cc3c(=O)c2O)cc1,"CH3CN, N2-purged",,6.1
CCN(CC)c1ccc2c(c1)O[B-]1(c3ccccc3OC)OC(=O)C(c3ccccc3)=N[N+]1=C2 (stereo not shown),toluene,,2.46
O=c1cc(/C=C/c2ccc(N3CCOCC3)cc2)oc(/C=C/c2ccc(N3CCOCC3)cc2)c1,acetonitrile,"298 K, added: excitation 377 nm",0.4
CCC1=[N+]2N=C(c3ccccc3)C(=O)O[B-]2(c2ccccc2)Oc2cc(OC)ccc21 (stereo not shown),toluene,,0.97
O=c1cc(/C=C/c2ccc(N3CCCC3)cc2)oc(/C=C/c2ccc(N3CCCC3)cc2)c1,acetonitrile/water 1:19 v/v,"298 K, aggregate nanoparticle suspension, added: excitation 377 nm",1.1
COc1ccc2nc(-c3ccc(N(C)C)cc3)sc2c1,PBS,free dye,1.26
C=Cc1ccccc1[B-]12OC(=O)C(c3ccccc3)=N[N+]1=Cc1ccc(N(CC)CC)cc1O2 (stereo not shown),toluene,,2.42
CN1CCN(c2ccc(/C=C/c3cc(=O)cc(/C=C/c4ccc(N5CCN(C)CC5)cc4)o3)cc2)CC1,acetonitrile,"298 K, added: excitation 377 nm",0.49
CCCCN1C(=O)c2cccc3c(NCCCCCCCCCCN4CCOCC4)ccc(c23)C1=O,toluene,,8.6
CCC1=[N+]2N=C(c3ccccc3)C(=O)O[B-]2(c2ccccc2)Oc2cc(N(CC)CC)ccc21 (stereo not shown),toluene,,2.52
CCCCN1C(=O)c2cccc3c(NCCCCN4CCOCC4)ccc(c23)C1=O,water,pH 6.0,4.6
O=c1cc(/C=C/c2ccc(N(c3ccccc3)c3ccccc3)cc2)oc(/C=C/c2ccc(N(c3ccccc3)c3ccccc3)cc2)c1,acetonitrile,"298 K, added: excitation 377 nm",0.56
